# Measurements of several laboratories.
# Parts stem from different laboratories: compare values within a part only. Changes are numbered by the printed parent chain.

# Block 1 — target: CCNB2, cyclin fold, Cln2 fusion (human); method: yeast growth competition, sequencing; sample: yeast; notes: weak parent motif; baseline: not given; reading: higher = stronger binding
# Starting sequence: CDKN1A docking peptide (human); SKACRRLFGPVDS; partner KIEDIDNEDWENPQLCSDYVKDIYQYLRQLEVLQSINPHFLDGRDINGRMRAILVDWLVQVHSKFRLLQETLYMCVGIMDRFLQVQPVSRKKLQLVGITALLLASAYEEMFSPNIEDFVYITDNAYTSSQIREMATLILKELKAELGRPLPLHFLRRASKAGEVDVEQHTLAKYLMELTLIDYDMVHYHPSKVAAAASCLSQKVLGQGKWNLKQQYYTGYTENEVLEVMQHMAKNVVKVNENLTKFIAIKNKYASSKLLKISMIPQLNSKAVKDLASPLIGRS
Substitution,normalised enrichment score
A3G,0.358
C4V,0.334
F8M,0.241
L7Q,0.5
C4P,0.106
A3W,0.69
L7V,0.913
R5K,0.368
P10F,-0.0228
A3C,0.547
F8R,0.323
D12N,0.374
F8I,0.156
A3Y,0.38
D12L,0.0722
G9T,0.305
R5I,-0.00698
P10L,-0.125

# Block 2 — target: UBE2H UBC core domain (UniProt P62256); method: yeast two-hybrid; sample: yeast; notes: mostly zero background; baseline: not given; reading: higher = stronger interaction
# Sequence of UniProt P62256 (whole entry, looked up): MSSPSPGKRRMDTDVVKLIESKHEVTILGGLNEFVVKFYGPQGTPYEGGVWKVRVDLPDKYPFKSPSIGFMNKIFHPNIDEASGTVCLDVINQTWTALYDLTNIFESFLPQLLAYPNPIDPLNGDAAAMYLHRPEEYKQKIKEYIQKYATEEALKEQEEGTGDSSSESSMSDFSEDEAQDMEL
# B1: RNF11 RING domain (UniProt Q9Y3C5); chain RDGSEKKIRECVICMMDFVYGDPIRFLPCMHIYHLDCIDDWLMRSFTCPSCMEPVDAALLSS
# B2: RNF17 RING domain (UniProt Q9BXT8); chain SQPWGAAEIQCTRCGRRVSRSSGHHCELQCGHAFCELCLLMTEECTTIICPDCEVATAVNTRQR
# B3: RNF130 RING domain (UniProt Q86XS8); chain DKETDPDFDHCAVCIESYKQNDVVRILPCKHVFHKSCVDPWLSEHCTCPMCKLNILKALGIV
# B4: RMND5B RING domain (UniProt Q96G75); chain MKCWYHSVFACPILRQQTSDSNPPIKLICGHVISRDALNKLINGGKLKCPYCPMEQNPADGK
# B5: TRIM68 RING domain (UniProt Q6AZZ1); chain LVEAIVEEVACPICMTFLREPMSIDCGHSFCHSCLSGLWEIPGESQNWGYTCPLCRAPVQPRNLRP
# B6: SHPRH RING domain (UniProt Q149N8); chain KTSGGVNPEPCPICARQLGKQWAVLTCGHCFCNECISIIIEQYSVGSHRSSIKCAICRQTTSHKEISY
# B7: RFPL3 RING domain (UniProt O75679); chain MAALFQEASSCPVCSDYLEKPMSLECGCTVCLKCINSLQKEPHGEDLLCCCCSMVSQRNKIRP
# B8: TRIM74 RING domain (UniProt Q86UV6); chain SLLELEDWLQCPICLEVFKESLMLQCGHSYCKGCLVSLSYHLDTKVRCPMCWQVVDGSSSLP
# B9: RNF32 RING domain (UniProt Q9H0A6); chain VQALRRETHECSICLAPLSAAGGQRVGAGRRSREMALLSCSHVFHHACLLALEEFSVGDRPPFHACPLCRSCYQKKILEC
# B10: TRIM34 RING domain (UniProt Q9BYJ4); chain ILLNVQEEVTCPICLELLTEPLSLDCGHSLCRACITVSNKEAVTSMGGKSSCPVCGISYSFEHLQA
# B11: TRIM2 RING domain (UniProt Q9C040); chain VRQIDKQFLICSICLERYKNPKVLPCLHTFCERCLQNYIPAHSLTLSCPVCRQTSILPEKGV
# B12: CBLL1 RING domain (UniProt Q75N03); chain GEKDDTPVHFCDKCGLPIKIYGRMIPCKHVFCYDCAILHEKKGDKMCPGCSDPVQRIEQCT
Molecule,lacZ reporter activity
B1 (RNF11 RING domain),0
B2 (RNF17 RING domain),0
GSEEEEIPFRCFICRQAFQNPVVTKCRHYFCESCALEHFRATPRCYICDQPTGGIFNPA (RNF113B RING domain (UniProt Q8IZP6)),0
B3 (RNF130 RING domain),0
VPADASPDSKCPICLDRFDNVSYLDRCLHKFCFRCVQEWSKNKAECPLCKQPFDSIFHSV (TOPORS RING domain (UniProt Q9NS56)),0
B4 (RMND5B RING domain),0
B5 (TRIM68 RING domain),0
B6 (SHPRH RING domain),0
PLRRLQEEKLCKICMDRHIAVVFIPCGHLVTCKQCAEAVDRCPMCSAVIDFKQRVF (BIRC8 RING domain (UniProt Q96P09)),0
B7 (RFPL3 RING domain),0
B8 (TRIM74 RING domain),0
B9 (RNF32 RING domain),0
B10 (TRIM34 RING domain),0
FLSKVEETFQCICCQELVFRPITTVCQHNVCKDCLDRSFRAQVFSCPACRYDLGRSYAMQ (UHRF1 RING domain (UniProt Q96T88)),0
B11 (TRIM2 RING domain),0
B12 (CBLL1 RING domain),0

# Block 3 — method: protein-binding microarray; molecule type: double-stranded DNA, one strand shown; sample: in vitro; concentration: 2540 nM top; notes: 60-bp whole probe; added: salmon DNA 0.4 mg/ml; baseline: random background probes; reading: higher = stronger binding; constant ends, left off below: GCCTAGCAC … GTCTTGATTCGCTTGACGCTGCTG
# Target: Interferon regulatory factor 3, full length, phosphomimetic (IRF3, Homo sapiens, UniProt Q14653, residues 1-427, S386D/S396D/S398D/S402D/T404D/S405D)
# Target sequence (chain): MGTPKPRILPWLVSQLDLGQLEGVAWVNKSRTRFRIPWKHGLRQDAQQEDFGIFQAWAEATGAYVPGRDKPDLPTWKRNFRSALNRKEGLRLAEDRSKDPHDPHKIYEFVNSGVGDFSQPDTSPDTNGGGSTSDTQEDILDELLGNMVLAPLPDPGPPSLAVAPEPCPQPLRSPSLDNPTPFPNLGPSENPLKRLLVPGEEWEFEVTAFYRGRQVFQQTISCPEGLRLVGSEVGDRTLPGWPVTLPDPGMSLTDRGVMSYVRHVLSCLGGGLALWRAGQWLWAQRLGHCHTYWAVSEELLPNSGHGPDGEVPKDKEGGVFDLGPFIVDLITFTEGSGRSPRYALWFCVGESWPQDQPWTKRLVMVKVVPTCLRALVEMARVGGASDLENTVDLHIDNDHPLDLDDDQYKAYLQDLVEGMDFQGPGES
Sequence,fitted relative affinity [z-score]
TTAGGACTGCTTATTCTTTAGTGCTAG,-0.191
TTAGATCTCAGTTGCGATTAGTGCTAG,0.888
GACGGTCTCGGTAGCGGGACGTGCTAG,0.261
CAGAGCCTCAGGCCTCACACAGTGCTA,-0.75
CCAGGGCTCTAGAGAAATAGGTGCTAG,-0.844
TTAAATCTCAGACTGGATTAGTGCTAG,0.0416
GACGGTTTCGGGTTTCGGGCCGTGCTA,5.44
TTAGGACTGGACTTGCGGTTAGTGCTA,-0.305
TGAGGACTGCTACTGCTTTAGTGCTAG,-1.03
GACGGTTTGCTTTTCCTGACGTGCTAG,1.93
GACGGTTTCGGGCTCGGGACGTGCTAG,3.67
GACGGTAACGACTATCGGGACGTGCTA,-0.303
TTAGGTTTCGGCTTCGGTTAGTGCTAG,3.5
TTAGATTTCGCGTATCGATTAGTGCTA,0.696
TCAGGTCACTCTCTGGGACTGTGCTAG,0.158
TCACCTCTCAACCATCCTACTGTGCTA,0.561
GACGATTTCAGACTCGAGACGTGCTAG,1.57
TCACATATTTATCTGCAACTGTGCTAG,0.459
TTAGGTTTCGACACTGGGATAGTGCTA,2.75
TTAGATTTCGGGTTTCTATTAGTGCTA,2.65
TTAGGACTGGGATATCGGTTAGTGCTA,-0.505
GACGGTTTCGGTATCCGGACGTGCTAG,8.43
GACGGACGGGACTATCGGGACGTGCTA,-0.467
GGAGTTTCCACCCTTCTCTCGTGCTAG,3.43

# Block 4 — method: RNA Bind-n-Seq; molecule type: RNA; sample: in vitro; concentration: 365 nM; baseline: no-protein control; reading: higher = stronger binding
# Target: RNA binding protein fox-1 homolog 2, RRM domain, GST-SBP tag (RBFOX2, Homo sapiens, UniProt O43251-10, residues 100-194)
# Notes: natural RNA segment, single round, ends assumed
# Constant ends, left off below: GGGAGUUCUACAGUCCGACGAUC … UGGAAUUCUCGGGUGCCAA
# Residues (chain): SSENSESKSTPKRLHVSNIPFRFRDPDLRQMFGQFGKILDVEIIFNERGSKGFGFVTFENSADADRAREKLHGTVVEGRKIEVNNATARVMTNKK
Sequence,RBNS enrichment (R)
CCCACCACCUGUCCGUCCCUGUCCCCUUUCCUGCUGGCAGGAGCCGGCUGCCUACCAGGGGCCUUCCUGUGUGGCCUGCCUUCACCCCACUCAGCUCACCUCUCCCUCCA,0.685
UGUGUGUGUGUCUUAGUGGAUCUUUACUUACCCAGGAGCAGGGCUAUGCUUACUCCUUGAAGCUCCUCCUAAAGGCCUCUCCUCCAUGCUAUACCCCUCUCCAUUACAGA,0.234
ACAAAAUUAAAUAAACAGAAUGUCCCCAGGAGUCAGCAGGUCACAGUCUGGCUUUGUGAUGGUUGACAAGGUCUAGCUACAUGGGAAAGCCUGAGAAGUCACUUUGGAAC,1.12
CCAGUUUGAUGGAGAAAAAGUCAAAGACGGACAGUGUGUUAAAGAACUGGAGGUGCCUGUGCACACUGGACCCAACAGUCAAAAGACUGCUGACUUGACACGUGACAGUG,0.593
UCCCCAGUAAGUCUGAGUGGUUCCUUCAAGCUGGGUGUCUUUCCAGCCUUUGCCAGUCUAGCCCCAGCAGGGCACCGUGUAUGAAUGCAGUUUGGUGCUGUUUUAGAGUA,1.11
ACUCUGCCUGACGAGGAACGCUGGCUCCGAAGAGGCCCUGUGUAGAAGGCUGUCAGCUGCUCAGCCUGCUUUGAGCCUCAGUGAGAAGUCCUUCCGACAGGAGCUGACUC,0.368
CAAAGAAGCCUUAAUGUUCAAGCUUUAGAAAGAUCAGAGCAAUUUUUCUCUUUCAGUCCAAACUAAGACUCUCUGUAUUUAAAUCUCUCUGGGGCAAGAGGGCUAGAUUU,0.84
AUCCCCUUACAUUUCUAGCACACCUUGGCCAUCACAGUAGACAAAGAAUACAGAGAAGGCAGUGGGUUAGGCAGUGGGGGAUGGGUUUUUGGUUUUUUUUUUGUUUUUUU,1.59
CUGGCUAGCCCAAGGGCCCUGCCAUGUUCUCCCCACAUCCGUAAAUAAACUUCCUUUCCCACACUGUAUCUGUGAGGAGGUUUCCUUGCCAGGUGUCUGAGGGCUCUGGA,0.32
GGGCUAAGGUUUCCAGUCAGAUGAGGCAAACAGCAAGAGUAAGCAGUGUUACUUGCAGGUACUUUGGUUAAUGUUGAUUUAAAUUUUCAUGAAUGUGCUGGUGAACACUG,0.446
GCUCCUGCAUCGAGUCUGUAAACCAGAGCUGGUUCUCAUGGCCUUCGUCACGAUACCAGGAUACGGAGGGGAGCCCAGGGCCAUCCAUACCCACCCCAGGGUAACGGGGC,0.245
UGGGAGCAGAUGGCCUGCCUUUGGCUGAGAGGGCUACCUGCCCAGCCCCUCCCCCAACAAGAUCUCUUGGACUCAGGCCUCAGAGCCUGGCCUGGUUGUGAGUGUGUGUC,0.442
